Values quoted from earlier work as cited in several papers.
Each line is one published result; not all experiments were run side by side.
Cell line: MDA-MB-231

| Structure (SMILES) | observed | setting | quantity | value |
| --- | --- | --- | --- | --- |
| O=c1c2ccc(-n3cc(-c4ccccc4)nn3)cc2ncn1Cc1ccc(Br)cc1 | – | – | IC50 | 3210 nM |
| O=C1NCC(Cc2ccccc2)N(CC2CCCN2CC(CC2CCCCC2)N2CC(Cc3ccc(O)cc3)N(CCc3ccccc3)C(=O)C2=O)C1=O (stereo not drawn) | viability | – | IC50 | > 100000 nM |
| O=C(N/N=C\c1c[nH]c2ccccc12)c1c[nH]c2ccccc12 | – | – | IC50 | 1000 nM |
| COc1cc(Nc2nnc(-c3cc4ccccc4[nH]3)s2)cc(OC)c1OC | cytotoxicity | – | IC50 | 440 nM |
| CC1=C(C)C(=O)OC(C(C)(O)C2CCC3C4CC5OC56C(O)C=CC(=O)C6(C)C4CCC32C)C1 (stereo not drawn) | cell growth | – | IC50 | 600 nM |
| [Cl-].[Cl-].[Ru+2].c1ccc(-c2ccccn2)nc1.c1ccc(-c2ccccn2)nc1.c1cnc2c(c1)ccc1cccnc12 | – | light irradiation | IC50 | > 100000 nM |
| Oc1cccc(-c2cccc(O)n2)n1.[Cl-].[Cl-].[Ru+2].c1cnc2c(c1)ccc1cccnc12.c1cnc2c(c1)ccc1cccnc12 | cell viability | dark | IC50 | 280000 nM |
| Cc1ccc2c(n1)c1nc(C)ccc1c1nc3cc4ccccc4cc3nc21.[Ru+2].c1ccc(-c2cccc(-c3ccccn3)n2)nc1.c1ccncc1 | cell viability | dark | EC50 | 34 µM |
| C=CC(=O)N(c1cccc2ccccc12)S(=O)(=O)c1ccc(OC)cc1 | cell growth | – | IC50 | 2850 nM |
| CCC(CCC(C)C1CCC2C3CCC4=CC(=O)CCC4(C)C3CCC12C)C(C)C (stereo not drawn) | – | – | IC50 | 128000 nM |
| CC1=C(CO)C(=O)O[C@@H]([C@@H](C)[C@H]2CC[C@H]3[C@@H]4C[C@H]5O[C@]56[C@@H](O)C=CC(=O)[C@]6(C)[C@H]4CC[C@]23C)C1 | cell growth | – | IC50 | 40 nM |
| Cc1ccc(-n2cc(CN3CCN(C(=O)c4nc5ccccc5n4C)CC3)nn2)cc1 | cell growth | – | IC50 | 2020 nM |

Excerpt of the above:
| Structure (SMILES) | observed | setting | quantity | value |
| --- | --- | --- | --- | --- |
| C=CC(=O)N(c1cccc2ccccc12)S(=O)(=O)c1ccc(OC)cc1 | cell growth | – | IC50 | 2850 nM |
